Measured values of several laboratories.
Organism: Escherichia coli

SMILES | test | test system | conditions | MIC
CN[C@H](CC(C)C)C(=O)N[C@H]1C(=O)N[C@@H](CC(N)=O)C(=O)N[C@H]2C(=O)N[C@H]3C(=O)N[C@H](C(=O)N[C@H](C(=O)O)c4cc(O)cc(O)c4-c4cc3ccc4O)[C@H](O)c3ccc(c(Cl)c3)Oc3cc2cc(c3O[C@@H]2O[C@H](CO)[C@@H](O)[C@H](O)[C@H]2O[C@H]2C[C@](C)(NCc3ccc(OCc4cn(CCCCC(=O)N[C@H](C(=O)N[C@@H](CCN)C(=O)N[C@H]5CCNC(=O)[C@H]([C@@H](C)O)NC(=O)[C@H](CCN)NC(=O)[C@H](CCN)NC(=O)[C@H](CC(C)C)NC(=O)[C@@H](CC(C)C)NC(=O)[C@H](CCN)NC5=O)[C@@H](C)O)nn4)c(OC)c3)[C@H](O)[C@H](C)O2)Oc2ccc(cc2Cl)[C@H]1O | broth microdilution | ATCC 35218, cation-adjusted Mueller-Hinton broth | 18 to 20 h, 37 °C, 0.002% polysorbate 80 | 16 µg/mL
COc1cc(C(=O)O)ccc1NC(=O)c1ccc(NC(=O)c2ccc(NC(=O)[C@H](Cc3c[nH]nn3)NC(=O)c3ccc(NC(=O)/C(C)=C/c4ccc(O)cc4)cc3)cc2)cc1 | broth microdilution | DSM 1116 |  | 0.25 µg/mL
CCCCCCCCCC(=O)Oc1c(C)c(OC)c2c(c1C)OC(=O)C(CCCCCCCC)C2(O)C=Cc1ccccc1 (centres unmarked) | microbial growth, broth dilution | ATCC25922 |  | 5000 µg/mL
COc1cc(C(=O)O)ccc1NC(=O)c1ccc(NC(=O)c2ccc(NC(=O)[C@H](Cc3c[nH]nn3)NC(=O)c3ccc(NC(=O)/C(C)=C/c4ccc(O)cc4)cc3)cc2)c(OC)c1 | broth microdilution | BW25113 |  | 0.25 µg/mL
CC[C@H]1OC(=O)[C@H](C)[C@@H](OC(=O)Cc2c(F)cccc2F)[C@H](C)[C@@H](O[C@@H]2O[C@H](C)C[C@H](N(C)C)[C@H]2O)[C@](C)(OC)C[C@@H](C)C(=O)[C@H](C)[C@@H](O)[C@]1(C)O |  | DSM 30083 | compound alone | 64 µM
CCCCCCCCCCCCCCCCCCn1cc(CN(CCC(=O)NCCN(CCC(=O)NCCN(CCC(=O)NCCN(C)C)CCC(=O)NCCN(C)C)CCC(=O)NCCN(CCC(=O)NCCN(C)C)CCC(=O)NCCN(C)C)CCC(=O)NCCN(CCC(=O)NCCN(CCC(=O)NCCN(C)C)CCC(=O)NCCN(C)C)CCC(=O)NCCN(CCC(=O)NCCN(C)C)CCC(=O)NCCN(C)C)nn1 | broth microdilution | ATCC 25922 | anaerobic, LB broth | 6 µg/mL
Cn1nc(CO)c(=O)c2c(=O)[nH]c(N)nc21 | microbial growth, broth dilution | BW25113 | 18 h | 50 µg/mL
CC[C@H](C)[C@H](NC(=O)[C@@H](CCCNC(=N)N)NC(=O)[C@H](CCCNC(=N)N)NC(=O)[C@@H]1CCCN1C(=O)[C@@H]1CCCN1C(=O)[C@H](CCCCN)NC(=O)[C@@H]1CCCN1C(=O)[C@H](CCCNC(=N)N)NC(=O)[C@@H]1CCCN1C(=O)[C@H](CC(C)C)NC(=O)[C@H](Cc1ccc(O)cc1)NC(=O)[C@@H]1CCCN1C(=O)[C@@H]1CCCN1C(=O)[C@H](CCCCN)NC(=O)[C@H](CC(=O)O)NC(=O)[C@@H](N)C(C)C)C(=O)N[C@@H](Cc1ccc(O)cc1)C(=O)N[C@@H](CC(N)=O)C(=O)N[C@H](CCCNC(=N)N)C(N)=O | broth microdilution | BW25113 | 18 h, 37 °C, 25% MHB2 | 8 µg/mL
CC1(C)C(NC(=O)C(=NOCC(=O)N2CC3CCCC3C2C(=O)O)c2csc(N)n2)C(=O)N1OS(=O)(=O)O (centres unmarked) | agar dilution | 16-1, ESBL-producing |  | 1 µg/mL
CC[C@H]1OC(=O)[C@H](C)[C@@H](OC(=O)Cc2c(F)cc([N+](=O)[O-])cc2F)[C@H](C)[C@@H](O[C@@H]2O[C@H](C)C[C@H](N(C)C)[C@H]2O)[C@](C)(OC)C[C@@H](C)C(=O)[C@H](C)[C@@H](O)[C@]1(C)O |  | DSM 30083 | together with: colistin sulfate at 0.5 x MIC | 0.5 µM
COc1cc(C(=O)Nc2ccc(C(=O)O)c(O)c2OC)ccc1NC(=O)c1ccc(NC(=O)[C@H](Cc2c[nH]nn2)NC(=O)c2ccc(NC(=O)/C(C)=C/c3ccc(O)cc3)cc2)cc1 | broth microdilution | DSM 1116 |  | 0.125 µg/mL
C=C[C@H]1CC1(NC(=O)C12CC(NC(=O)c3ccc(C#N)cc3)(C1)C2)C(=O)Nc1ccc(C(=O)Nc2ccc(C(=O)Nc3ccc(C(=O)O)cc3)c(O)c2OC(C)C)cc1 (some centres unmarked) |  | BW25113 ΔtolC |  | 0.04 µg/mL
CC[C@H]1OC(=O)[C@H](C)[C@@H](OC(=O)Cc2cccc3ccccc23)[C@H](C)[C@@H](O[C@@H]2O[C@H](C)C[C@H](N(C)C)[C@H]2O)[C@](C)(OC)C[C@@H](C)C(=O)[C@H](C)[C@@H](O)[C@]1(C)O | microbial growth | ATCC25922 |  | > 32 µg/mL
CCCCCCCCCCCC[N+](C)(C)CCCCOc1cc(OCCCC[N+](C)(C)CCCCCCCCCCCC)cc(OCCCC[N+](C)(C)CCCCCCCCCCCC)c1.[Br-].[Br-].[Br-] |  | MC4100 |  | 4 µM
C=CCO/N=C(\C(=O)N[C@@H]1C(=O)N(S(=O)(=O)O)[C@H]1C)c1csc(N)n1 | microbial growth, agar dilution | ATCC25 |  | 0.25 µg/mL
CC[C@H]1OC(=O)[C@H](C)[C@@H](OC(=O)Cc2ccc3c(c2)OCO3)[C@H](C)[C@@H](O[C@@H]2O[C@H](C)C[C@H](N(C)C)[C@H]2O)[C@](C)(OC)C[C@@H](C)C(=O)[C@H](C)[C@@H](O)[C@]1(C)O |  | DSM 30083 | together with: colistin sulfate at 0.1 x MIC | 16 µM
CC[C@H](C)[C@H](NC(=O)[C@H](CCCNC(=N)N)NC(=O)[C@H](CC(=O)O)NC(=O)[C@H](CCCNC(=N)N)NC(=O)[C@H](CC(C)C)NC(=O)[C@H](CC(N)=O)NC(=O)[C@H](CCCNC(=N)N)NC(=O)[C@@H](N)Cc1ccccc1)C(=O)N[C@@H](CCCCN)C(=O)N[C@@H](CC(N)=O)C(=O)N[C@@H](CCCCN)C(=O)N[C@@H](Cc1ccccc1)C(=O)N[C@@H](CCC(=O)O)C(=O)N[C@@H](CC(N)=O)C(=O)N[C@@H](C)C(=O)N[C@@H](CC(C)C)C(=O)N[C@@H](CCCCN)C(=O)N[C@@H](CC(N)=O)C(=O)N[C@H](C(=O)N[C@H](C(=O)N[C@@H](CC(N)=O)C(=O)N[C@@H](CCCCN)C(=O)N[C@@H](CC(C)C)C(=O)N[C@@H](Cc1ccccc1)C(=O)N1CCC[C@H]1C(=O)O)[C@@H](C)CC)C(C)C | broth microdilution | ATCC 25922 | 16 h, 37 °C, cation-adjusted Mueller-Hinton broth | 32 µg/mL
CC[C@H]1OC(=O)[C@H](C)[C@@H](OC(=O)Cc2ccc(N)cc2)[C@H](C)[C@@H](O[C@@H]2O[C@H](C)C[C@H](N(C)C)[C@H]2O)[C@](C)(OC)C[C@@H](C)C(=O)[C@H](C)[C@@H](O)[C@]1(C)O |  | tolC |  | 2 µg/mL

SMILES | test | test system | conditions | MIC
C[C@H](CS)C(=O)Nc1cccc(-c2nn[nH]n2)c1 | broth microdilution, measured: meropenem | DH5α pET28-lacUV5 control | 50 µM, together with: meropenem | < 0.125 µg/mL
CCCCCCCCCCCC[N+](C)(C)CCCCCCCCOc1cc(OCCCCCCCC[N+](C)(C)CCCCCCCCCCCC)cc(OCCCCCCCC[N+](C)(C)CCCCCCCCCCCC)c1.[Br-].[Br-].[Br-] |  | MC4100 |  | 32 µM
C#CCO/N=C(\C(=O)N[C@@H]1C(=O)N(OS(=O)(=O)O)C1(C)C)c1nsc(N)n1 | agar dilution | 16-1, ESBL-producing |  | 4 µg/mL
COc1ccc2ccc(O)c(/C=N/[C@H]3CCCC[C@H]3/N=C/c3ccccc3O)c2c1 | microbial growth, broth dilution |  | clinical isolate | > 40 µM
COc1nc(C(=O)Nc2ccc(C(=O)O)c(O)c2OC)ccc1NC(=O)c1ccc(NC(=O)[C@H](Cc2c[nH]nn2)NC(=O)c2ccc(NC(=O)/C(C)=C/c3ccc(O)cc3)cc2)cc1 | broth microdilution | ciprofloxacin-sensitive |  | 0.031 µg/mL
COc1ccc2ccc(O)c(/C=N/[C@H]3CCCC[C@H]3/N=C/c3c(O)cccc3OC)c2c1 | microbial growth, broth dilution |  | clinical isolate | > 40 µM
CCOc1c(NC(=O)c2ccc(NC(=O)c3ccc(NC(=O)[C@H](Cc4c[nH]nn4)NC(=O)c4ccc(NC(=O)/C(C)=C/c5ccc(O)cc5)cc4)cc3)c(OCC)c2O)ccc(C(=O)O)c1O | broth microdilution | BW25113 |  | 0.016 µg/mL
CC(C)C[C@@H]1NC(=O)[C@@H](CC(C)C)NC(=O)[C@H](CCN)NC(=O)[C@@H](NC(=O)[C@H](CCN)NC(=O)[C@@H](NC(=O)CCCCN=[N+]=[N-])[C@@H](C)O)CCNC(=O)[C@H]([C@@H](C)O)NC(=O)[C@H](CCN)NC(=O)[C@H](CCN)NC1=O | broth microdilution | ATCC 35218, cation-adjusted Mueller-Hinton broth | 18 to 20 h, 37 °C, 0.002% polysorbate 80 | 8 µg/mL
CCC(CC)c1cc(CCN2CCCN(C(=O)OC(C)(C)C)CC2)nc(-c2cccnc2)n1 | microbial growth, broth dilution | ATCC25922 |  | > 64 µg/mL
COc1c(NC(=O)c2ccc(NC(=O)c3ccc(NC(=O)[C@H](Cc4c[nH]nn4)NC(=O)c4ccc(NC(=O)/C(C)=C/c5ccc(O)cc5)cc4)cc3)cc2)ccc(C(=O)O)c1O | broth microdilution | BW25113 |  | 0.031 µg/mL
CC(C)C[C@@H]1NC(=O)[C@@H](CC(C)C)NC(=O)[C@H](CCN)NC(=O)[C@@H](NC(=O)[C@H](CCN)NC(=O)[C@@H](NC(=O)CCOCCOCCOCCN=[N+]=[N-])[C@@H](C)O)CCNC(=O)[C@H]([C@@H](C)O)NC(=O)[C@H](CCN)NC(=O)[C@H](CCN)NC1=O | broth microdilution | ATCC 35218, cation-adjusted Mueller-Hinton broth | 18 to 20 h, 37 °C, 0.002% polysorbate 80 | 32 µg/mL
COc1ccc2ccc(O)c(/C=N/[C@H]3CCCC[C@H]3/N=C/c3cc(C)ccc3O)c2c1 | microbial growth, broth dilution |  |  | > 40 µM
COc1cc(C(=O)Nc2ccc(C(=O)O)cc2)ccc1NC(=O)c1ccc(NC(=O)[C@H](Cc2c[nH]nn2)NC(=O)c2ccc(NC(=O)/C(C)=C/c3ccc(O)cc3)cc2)cc1 | broth microdilution | DSM 1116 |  | 4 µg/mL
CC(C(=O)O)c1nn(C)c2nc(N)[nH]c(=O)c2c1=O (centres unmarked) | microbial growth, broth dilution | BW25113 | 18 h | > 100 µg/mL
COc1c(NC(=O)c2ccc(NC(=O)c3ccc(NC(=O)[C@H](CC#N)NC(=O)c4ccc(NC(=O)/C(C)=C/c5ccc(O)cc5)cc4)cc3)c(OC)c2O)ccc(C(=O)O)c1O | microbial growth, broth dilution | DSM1116 |  | 0.063 µg/mL
CCCCCCCC[N+](C)(C)CCCCCCOc1cc(OCCCCCC[N+](C)(C)CCCCCCCC)cc(OCCCCCC[N+](C)(C)CCCCCCCC)c1.[Br-].[Br-].[Br-] |  | MC4100 |  | 1 µM
CCCCCC(=O)Oc1c(C)c(OC)c2c(c1C)OC(=O)[C@@H](CCCC)[C@]2(O)/C=C/c1ccccc1 (relative stereo) | microbial growth, broth dilution | ATCC25922 |  | 5000 µg/mL

A few entries again:
SMILES | test | test system | conditions | MIC
C#CCO/N=C(\C(=O)N[C@@H]1C(=O)N(OS(=O)(=O)O)C1(C)C)c1nsc(N)n1 | agar dilution | 16-1, ESBL-producing |  | 4 µg/mL
COc1ccc2ccc(O)c(/C=N/[C@H]3CCCC[C@H]3/N=C/c3ccccc3O)c2c1 | microbial growth, broth dilution |  | clinical isolate | > 40 µM
COc1nc(C(=O)Nc2ccc(C(=O)O)c(O)c2OC)ccc1NC(=O)c1ccc(NC(=O)[C@H](Cc2c[nH]nn2)NC(=O)c2ccc(NC(=O)/C(C)=C/c3ccc(O)cc3)cc2)cc1 | broth microdilution | ciprofloxacin-sensitive |  | 0.031 µg/mL
